Assay results from different studies.
Numbered parts are unrelated; each lists some results of a single study.

Sample 1
Target: Interferon regulatory factor 5, full length, phosphomimetic (IRF5, Homo sapiens, UniProt Q13568-2, residues 1-514, K96S/S451D/S453D/S456D/S462D)
Method: protein-binding microarray
Form: double-stranded DNA, one strand shown
Sample: in vitro
Tested at: 250 nM
Setting: 60-bp whole probe
Added: salmon DNA 0.4 mg/ml
Baseline: random background probes
Direction: higher = stronger binding
All sequences stand within: GCCTAGCAC … GTCTTGATTCGCTTGACGCTGCTG
With `TTAGGACTGGGGACTGGGTCAGTGCTA` the log fluorescence was -0.675 z-score.
The log fluorescence of `GACGATCTTAGACTGGAGACGTGCTAG` is reported as -0.338 z-score.
`GACGATTTCAGGTTCGAGACGTGCTAG` has a log fluorescence of 0.783 z-score.
The log fluorescence of `TGAACTTGGAATTTCCCTCTGTGCTAG` is reported as 0.0365 z-score.
`GACGATTTCAGTTCCGTGACGTGCTAG` has a log fluorescence of 1.12 z-score.
`CTAGATATCAGTTTCGATTAGTGCTAG` gave a log fluorescence of 10 z-score.
`TTCTTTTCCATTTTGTGTTTGTGCTAG` gave a log fluorescence of 1.78 z-score.

Sample 2
Target: Histone acetyltransferase KAT6A, winged helix 1, GST fusion (KAT6A, Homo sapiens, UniProt Q92794, residues 1-85)
Method: protein binding microarray
Form: double-stranded DNA, one strand shown
Sample: in vitro
Tested at: not given
Setting: 8-mer, flanks averaged, mean of 2 arrays, mostly near background
Baseline: not given
Direction: higher = stronger binding
Residues (chain): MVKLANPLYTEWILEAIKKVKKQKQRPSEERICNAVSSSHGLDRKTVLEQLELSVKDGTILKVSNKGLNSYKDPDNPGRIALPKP
`AATGGATC` has an E-score of -0.108.
`ATAATAAT` gave an E-score of -0.12.
The E-score of `AGCTGACA` is reported as -0.0333.
`CTATACAA` gave an E-score of -0.0198.
For `CATTCCAC`, the E-score was 0.0688.

Sample 3
Target: Ras GTPase-activating protein-binding protein 1, C-terminal RGG region (G3BP1, Homo sapiens, UniProt Q13283)
UniProt Q13283, sequence (whole entry, looked up): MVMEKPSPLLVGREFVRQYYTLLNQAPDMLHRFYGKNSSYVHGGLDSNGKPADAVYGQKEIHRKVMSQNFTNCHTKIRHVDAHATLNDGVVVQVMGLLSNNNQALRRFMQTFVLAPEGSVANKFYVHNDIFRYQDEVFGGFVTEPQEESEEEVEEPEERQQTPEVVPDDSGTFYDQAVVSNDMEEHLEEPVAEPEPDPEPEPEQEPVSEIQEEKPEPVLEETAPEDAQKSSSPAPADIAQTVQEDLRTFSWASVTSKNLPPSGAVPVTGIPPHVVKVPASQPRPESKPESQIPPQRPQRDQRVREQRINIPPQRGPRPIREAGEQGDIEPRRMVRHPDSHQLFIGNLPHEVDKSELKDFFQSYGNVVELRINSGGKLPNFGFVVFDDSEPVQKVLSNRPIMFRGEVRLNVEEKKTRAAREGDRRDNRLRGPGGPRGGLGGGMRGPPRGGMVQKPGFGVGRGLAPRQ
Method: RNA Bind-n-Seq
Form: RNA
Sample: in vitro
Tested at: 1 µM
Setting: whole 134-nt RNA, ends assumed
Added: 150 mM KCl
Baseline: input library
Direction: higher = stronger binding
The log2 enrichment of `GGGAGUUCUACAGUCCGACGAUCCAAGUCCUGUGCUACACAUCGUAUGUACCGAAUCGGUUUUUGGAAAAAGGUUUGGAAAGUAUUAUGUUACGCCGUUCGGAUCUGCACUUCUGGAAUUCUCGGGUGUCAAGG` is reported as -2.16.
`GGGAGUUCUACAGUCCGACGAUCCUCAAGUCCUGUGCUACACAUCGUAUGUACCGAAUCGGGGCCGGCCGGCCGGGAAAGUAUUAUGUUACGCCGUUCGGAUCUGCACUUCCAUGGAAUUCUCGGGUGUCAAGG` gave a log2 enrichment of -0.884.
With `GGGAGUUCUACAGUCCGACGAUCUAACUUUAGAGGAGGAUCUGAUGGAUAUGGCAGUGGACGUGGAUUUGGGGAAGGCUAUAAUGGGUAUGGAGGAGGACCUGGAGGUGGCAAUGGAAUUCUCGGGUGUCAAGG` the log2 enrichment was -0.268.

Mixed results
With `PhoQ, residues 284 288 289 292 302 303 AGGLSV` the fold induction was 4.22 (PhoP, residues 12 14 15 18 19 NQCAL (Escherichia coli, UniProt P23836); Sort-seq, measured: YFP reporter; E. coli; PhoQ-PhoP variant library, added: 10 µM Mg2+; baseline: high Mg2+ state, higher = stronger signaling).
